Assay results collected from several papers.
A part holds a random share of what one study measured. Positions count from the first letter of the parent shown.
Sequence of UniProt O15294 (whole entry, looked up): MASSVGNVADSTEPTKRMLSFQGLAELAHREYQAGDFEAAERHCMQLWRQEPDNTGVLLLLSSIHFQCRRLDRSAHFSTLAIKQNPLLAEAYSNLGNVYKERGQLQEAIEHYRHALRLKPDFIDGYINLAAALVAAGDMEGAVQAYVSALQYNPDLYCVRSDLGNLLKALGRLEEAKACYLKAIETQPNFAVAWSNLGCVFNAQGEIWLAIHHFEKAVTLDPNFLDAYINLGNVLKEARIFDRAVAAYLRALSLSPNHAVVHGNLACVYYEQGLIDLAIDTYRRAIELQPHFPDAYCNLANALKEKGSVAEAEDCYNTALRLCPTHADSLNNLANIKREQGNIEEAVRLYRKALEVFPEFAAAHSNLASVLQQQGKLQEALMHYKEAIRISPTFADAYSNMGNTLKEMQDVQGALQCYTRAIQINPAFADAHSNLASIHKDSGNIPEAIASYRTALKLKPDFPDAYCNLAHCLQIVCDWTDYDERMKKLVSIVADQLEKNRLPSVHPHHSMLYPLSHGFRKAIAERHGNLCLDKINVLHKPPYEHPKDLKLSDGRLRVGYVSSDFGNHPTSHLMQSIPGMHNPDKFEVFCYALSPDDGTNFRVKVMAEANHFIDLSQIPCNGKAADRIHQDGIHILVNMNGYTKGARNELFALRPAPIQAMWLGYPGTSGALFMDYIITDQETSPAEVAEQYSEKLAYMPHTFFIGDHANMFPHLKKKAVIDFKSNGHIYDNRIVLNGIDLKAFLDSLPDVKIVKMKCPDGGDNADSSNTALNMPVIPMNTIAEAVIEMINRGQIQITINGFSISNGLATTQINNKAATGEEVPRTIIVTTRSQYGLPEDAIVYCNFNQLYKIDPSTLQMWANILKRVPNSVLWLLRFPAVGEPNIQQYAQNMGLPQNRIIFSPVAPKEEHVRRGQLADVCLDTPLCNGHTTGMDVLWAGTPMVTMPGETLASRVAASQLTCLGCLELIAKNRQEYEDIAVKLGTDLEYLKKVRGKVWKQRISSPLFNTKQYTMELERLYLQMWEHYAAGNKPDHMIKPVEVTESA

Sample 1 — Change: Y115Q; method: DHFR PCA, deep sequencing; matrix: yeast; relative to: wild-type fitted maximum; reading: higher = stronger binding
Target: ABI1, truncated, D143A, DHFR fusion (Arabidopsis thaliana)
Setting: methotrexate growth selection, single substitutions
Starting sequence: PYL1, truncated, DHFR fusion (Arabidopsis thaliana); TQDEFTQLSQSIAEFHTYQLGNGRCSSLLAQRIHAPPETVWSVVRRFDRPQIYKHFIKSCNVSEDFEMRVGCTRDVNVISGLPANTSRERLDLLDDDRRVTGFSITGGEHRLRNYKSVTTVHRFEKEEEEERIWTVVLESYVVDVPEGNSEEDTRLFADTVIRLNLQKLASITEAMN; partner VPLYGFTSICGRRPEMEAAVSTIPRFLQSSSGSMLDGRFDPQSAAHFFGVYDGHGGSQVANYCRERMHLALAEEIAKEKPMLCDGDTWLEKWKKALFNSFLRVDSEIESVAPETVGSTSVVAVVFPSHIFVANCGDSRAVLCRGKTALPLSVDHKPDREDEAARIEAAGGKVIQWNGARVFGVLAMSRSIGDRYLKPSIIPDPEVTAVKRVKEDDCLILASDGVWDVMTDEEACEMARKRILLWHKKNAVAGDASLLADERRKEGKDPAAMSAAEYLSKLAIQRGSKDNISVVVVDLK
added: (+)-ABA 58 µM — “relative binding score”: -24.7%.
The “relative binding score” was -5.03% (added: (+)-ABA 0.0091 µM).
The “relative binding score” was 2.46% (added: (+)-ABA 0.032 µM).
For added: (+)-ABA 17 µM: “relative binding score” read -12.8%.
It gave 6.02% for “relative binding score” (added: (+)-ABA 0 µM).
It gave -7.34% for “relative binding score” (added: (+)-ABA 1.4 µM).

Sample 2 — method: protein binding microarray; molecule type: double-stranded DNA, one strand shown; matrix: in vitro; concentration: not given; relative to: not given; reading: higher = stronger binding
Target: Histone acetyltransferase KAT6A, both winged helices, GST fusion (KAT6A, Homo sapiens, UniProt Q92794, residues 1-181)
Setting: 8-mer, flanks averaged, mean of 2 arrays, mostly near background
Construct (chain): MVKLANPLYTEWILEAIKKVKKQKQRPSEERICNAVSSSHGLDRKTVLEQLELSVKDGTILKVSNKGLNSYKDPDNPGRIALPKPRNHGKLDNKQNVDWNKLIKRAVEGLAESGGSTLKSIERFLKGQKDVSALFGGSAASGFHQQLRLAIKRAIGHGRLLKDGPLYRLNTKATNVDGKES
`GCCCGGGC` has an E-score of 0.328.
`CTCTGAAG` gave an E-score of -0.102.
For `CATTGTCC`, the E-score was -0.0385.
The E-score of `CGTTCATC` is reported as 0.0984.
With `CGTATGGC` the E-score was 0.0309.
With `ACAATCCC` the E-score was -0.0346.
`CCCTTGCC` has an E-score of -0.0744.
The E-score of `AAAATTGG` is reported as -0.234.

Other studies, line by line
For `SRSF1 (Homo sapiens, UniProt Q07955)`, cross-linked residues read “K179 to K125” (SRSF5 (Homo sapiens, UniProt Q13243); cross-linking MS; cell fractions; added: DSSO).
`NEQQIFPPIYIIQHP` — result for “enrichment fold change”: 3.31 (UDP-N-acetylglucosamine--peptide N-acetylglucosaminyltransferase 110 kDa subunit (OGT, Homo sapiens, UniProt O15294); binding, phage display NGS; peptide; concentration not given; relative to: input library).
Under cross-linked residues, `ADNP (Homo sapiens, UniProt Q9H2P0)` is recorded as “K699 to E677” (GTF3C4 (Homo sapiens, UniProt Q9UKN8); cross-linking MS; cell fractions; added: DMTMM).
`ATP5F1C (Homo sapiens, UniProt P36542)`: interaction screen “cross-linked” (ATP5MK (Homo sapiens, UniProt Q96IX5); cross-linking MS; hits only).
`VPS11 (Homo sapiens, UniProt Q9H270)`: cross-linked residues “K909 to K481” (VPS18 (Homo sapiens, UniProt Q9P253); cross-linking MS; cell fractions; added: DSSO).
